Measurements collected from several papers.
Each numbered part is a random draw from the data of one study; scales do not carry over between parts.

Series 1
Target: Sal-like protein 4, full length isoform A (SALL4, Homo sapiens, UniProt Q9UJQ4, residues 1-1053)
UniProt Q9UJQ4, sequence (whole entry, looked up): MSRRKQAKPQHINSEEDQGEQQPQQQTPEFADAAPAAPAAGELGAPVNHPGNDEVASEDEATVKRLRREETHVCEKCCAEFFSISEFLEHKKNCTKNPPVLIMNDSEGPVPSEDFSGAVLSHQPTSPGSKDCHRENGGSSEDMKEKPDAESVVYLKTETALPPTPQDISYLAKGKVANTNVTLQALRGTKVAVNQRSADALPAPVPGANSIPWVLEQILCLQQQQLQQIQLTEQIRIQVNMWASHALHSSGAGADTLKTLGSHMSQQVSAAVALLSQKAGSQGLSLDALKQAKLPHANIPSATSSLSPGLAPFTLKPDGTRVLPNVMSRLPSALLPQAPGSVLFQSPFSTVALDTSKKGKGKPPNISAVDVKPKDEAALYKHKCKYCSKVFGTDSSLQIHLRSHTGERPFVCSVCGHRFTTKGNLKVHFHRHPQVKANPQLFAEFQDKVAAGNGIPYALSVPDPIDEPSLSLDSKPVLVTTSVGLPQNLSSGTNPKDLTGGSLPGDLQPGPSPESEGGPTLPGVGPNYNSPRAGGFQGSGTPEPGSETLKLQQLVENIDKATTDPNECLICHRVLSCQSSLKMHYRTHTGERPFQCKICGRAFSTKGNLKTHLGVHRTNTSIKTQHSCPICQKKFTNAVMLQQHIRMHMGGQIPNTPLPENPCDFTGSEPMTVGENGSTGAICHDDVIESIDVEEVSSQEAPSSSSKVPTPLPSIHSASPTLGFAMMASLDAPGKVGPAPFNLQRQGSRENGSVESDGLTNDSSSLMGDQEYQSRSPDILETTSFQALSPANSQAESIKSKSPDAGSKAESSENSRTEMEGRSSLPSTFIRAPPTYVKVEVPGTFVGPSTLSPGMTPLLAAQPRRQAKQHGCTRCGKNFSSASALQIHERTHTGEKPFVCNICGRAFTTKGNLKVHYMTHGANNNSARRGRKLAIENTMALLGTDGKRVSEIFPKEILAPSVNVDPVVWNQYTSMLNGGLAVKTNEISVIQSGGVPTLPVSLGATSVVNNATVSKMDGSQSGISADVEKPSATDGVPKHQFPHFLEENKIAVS
Technique: universal PBM
Form: double-stranded DNA, one strand shown
Sample: in vitro
Concentration: 600 nM
Notes: 8-mer, flanks averaged, mean of replicates
Reading: higher = stronger binding
Strand	E-score
AAGACTAC	0.0907
GTTGGGAA	-0.135
AGATCTTA	0.0823
CTCTCAAA	0.0782
GACTATGA	0.153
CTTGACGA	-0.103

Series 2
Target: Transcriptional repressor CTCF (CTCF, Homo sapiens, UniProt P49711, residues 1-727, full length assumed)
UniProt P49711, sequence (whole entry, looked up): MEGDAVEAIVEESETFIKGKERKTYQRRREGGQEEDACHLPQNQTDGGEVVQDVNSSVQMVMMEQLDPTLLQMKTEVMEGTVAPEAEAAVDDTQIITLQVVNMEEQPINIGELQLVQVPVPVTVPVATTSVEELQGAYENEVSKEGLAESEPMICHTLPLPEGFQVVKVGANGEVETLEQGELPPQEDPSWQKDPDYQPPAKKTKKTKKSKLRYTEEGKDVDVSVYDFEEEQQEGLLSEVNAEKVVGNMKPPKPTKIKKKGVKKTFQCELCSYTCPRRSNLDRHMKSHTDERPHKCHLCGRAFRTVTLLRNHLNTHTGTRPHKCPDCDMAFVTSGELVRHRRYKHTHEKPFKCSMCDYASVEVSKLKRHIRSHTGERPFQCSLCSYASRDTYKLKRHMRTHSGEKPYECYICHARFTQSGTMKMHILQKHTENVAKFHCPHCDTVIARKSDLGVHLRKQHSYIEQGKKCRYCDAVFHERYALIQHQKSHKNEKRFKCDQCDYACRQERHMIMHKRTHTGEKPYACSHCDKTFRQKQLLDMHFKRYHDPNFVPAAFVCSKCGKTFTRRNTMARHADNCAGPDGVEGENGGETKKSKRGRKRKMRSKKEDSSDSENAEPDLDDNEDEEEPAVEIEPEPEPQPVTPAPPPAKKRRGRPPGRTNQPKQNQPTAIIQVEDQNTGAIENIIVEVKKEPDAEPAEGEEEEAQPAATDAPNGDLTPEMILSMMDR
Technique: protein-binding microarray
Form: double-stranded DNA, one strand shown
Sample: in vitro
Concentration: not given
Notes: k-mer, scored over probes, only values ≥0.25
Reading: higher = stronger binding
Strand	E-score
GGCGGGGA	0.369
CGCGCTTA	0.276
CGCGCATA	0.326
ACAGAAAT	0.273
AATAATAC	0.305

Series 3
Target: Interferon regulatory factor 7, full length, phosphomimetic (IRF7, Homo sapiens, UniProt Q92985, residues 1-503, S101K/S471D/S472D/S475D/S476D/S477D/S483D/S484D/S487D)
Technique: protein-binding microarray
Form: double-stranded DNA, one strand shown
Sample: in vitro
Concentration: 250 nM
Notes: 60-bp whole probe
Together with: salmon DNA 0.4 mg/ml
Relative to: random background probes
Reading: higher = stronger binding
Target sequence (chain): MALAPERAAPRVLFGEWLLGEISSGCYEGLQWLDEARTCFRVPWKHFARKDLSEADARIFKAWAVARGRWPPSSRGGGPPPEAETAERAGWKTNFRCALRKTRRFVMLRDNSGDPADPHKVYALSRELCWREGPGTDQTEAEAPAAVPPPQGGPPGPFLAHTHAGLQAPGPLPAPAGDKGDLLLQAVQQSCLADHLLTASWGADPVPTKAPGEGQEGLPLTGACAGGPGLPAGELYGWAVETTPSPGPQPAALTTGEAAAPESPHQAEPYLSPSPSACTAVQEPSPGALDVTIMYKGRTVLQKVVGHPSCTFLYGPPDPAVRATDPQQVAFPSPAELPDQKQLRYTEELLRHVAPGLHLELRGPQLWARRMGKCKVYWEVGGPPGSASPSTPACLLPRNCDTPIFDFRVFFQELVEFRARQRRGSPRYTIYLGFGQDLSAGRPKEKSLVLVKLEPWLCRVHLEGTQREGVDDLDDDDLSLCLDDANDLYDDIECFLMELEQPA
Strand	log fluorescence [z-score]
GCCTAGCACCTGCCTCACATTGCTAAGACGTGCTAGGTCTTGATTCGCTTGACGCTGCTG	1
GCCTAGCACTTAGGACTGGGTTTCGGTTCGTGCTAGGTCTTGATTCGCTTGACGCTGCTG	10.1
GCCTAGCACTCATTTTTCTGCTTAGAACTGTGCTAGGTCTTGATTCGCTTGACGCTGCTG	1.42
GCCTAGCACTTAGGTTCCCTTTTTCTTTAGTGCTAGGTCTTGATTCGCTTGACGCTGCTG	3.16

Single results of other studies
Molecule	target	assay	system	setting	how to read	endpoint	result
PhoQ, residues 284 288 289 292 302 303 SSTLSG	PhoP, residues 12 14 15 18 19 GQALL (Escherichia coli, UniProt P23836)	Sort-seq, measured: YFP reporter	E. coli	PhoQ-PhoP variant library, together with: 10 µM Mg2+	relative to: high Mg2+ state, higher = stronger signaling	fold induction	11

Excerpt of the above (series 1):
Strand	E-score
GACTATGA	0.153
GTTGGGAA	-0.135
